Results gathered from unrelated publications.
Parts stem from different laboratories: compare values within a part only.

Set 1 — method: protein binding microarray; form: double-stranded DNA, one strand shown; medium: in vitro; tested at: not given; baseline: not given; reading: higher = stronger binding; endpoint: E-score
Target: Histone acetyltransferase KAT6A, both winged helices, GST fusion (KAT6A, Homo sapiens, UniProt Q92794, residues 1-181)
Setting: 8-mer, flanks averaged, mean of 2 arrays, mostly near background
Residues (chain): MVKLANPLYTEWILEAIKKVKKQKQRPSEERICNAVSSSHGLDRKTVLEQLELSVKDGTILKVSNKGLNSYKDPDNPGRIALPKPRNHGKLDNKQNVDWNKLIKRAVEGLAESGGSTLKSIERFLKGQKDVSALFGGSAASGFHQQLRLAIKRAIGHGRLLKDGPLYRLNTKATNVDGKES
GCCAAAAA: -0.12
ACAGGACG: 0.115
GATTGCAC: -0.00324
CATTTGTA: -0.13
AAGCCGGG: 0.119
ATGATGTG: -0.0661
GGTAGTTA: -0.00762
TAGACGAA: -0.0505
ATATCGAG: 0.101
CCAAGGCG: 0.169
TGTCAACA: -0.0285
AGGGGTAT: -0.225
ACTTAAAC: -0.201
ACAGTGAT: -0.157
ACAACCCC: -0.0367
ACGAGATG: -0.0123

Set 2 — method: RNA Bind-n-Seq; form: RNA; medium: in vitro; tested at: 200 nM; setting: whole 134-nt RNA, ends assumed; with: 150 mM KCl; baseline: input library; reading: higher = stronger binding; endpoint: log2 enrichment
Target: Ras GTPase-activating protein-binding protein 1, full length (G3BP1, Homo sapiens, UniProt Q13283)
Sequence of UniProt Q13283 (whole entry, looked up): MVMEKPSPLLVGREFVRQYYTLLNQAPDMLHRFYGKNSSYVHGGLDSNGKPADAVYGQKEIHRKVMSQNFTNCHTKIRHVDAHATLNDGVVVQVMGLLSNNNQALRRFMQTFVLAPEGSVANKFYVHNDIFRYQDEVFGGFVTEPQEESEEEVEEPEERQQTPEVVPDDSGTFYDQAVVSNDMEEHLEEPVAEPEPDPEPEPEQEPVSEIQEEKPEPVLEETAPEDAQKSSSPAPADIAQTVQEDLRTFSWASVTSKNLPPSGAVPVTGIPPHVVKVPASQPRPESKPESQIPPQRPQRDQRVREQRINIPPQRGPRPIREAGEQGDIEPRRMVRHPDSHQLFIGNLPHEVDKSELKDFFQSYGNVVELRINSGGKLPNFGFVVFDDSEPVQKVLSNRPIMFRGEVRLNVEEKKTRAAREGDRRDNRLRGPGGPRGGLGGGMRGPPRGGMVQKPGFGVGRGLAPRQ
Constant ends, left off below: GGGAGUUCUACAGUCCGACGAUC … UGGAAUUCUCGGGUGUCAAGG
CUCAAGUCCUGUGCUACACAUCGUAUGUACCGAAUCGGUUUUUGGAAAGGAGGAAAGUAUUAUGUUACGCCGUUCGGAUCUGCACUUCCA: -0.458
ACCAUGCAGGUGGGCAUCUUUGGGAAGUGGGGCAAGGGGGGGAUAGGGAGGGGGGUAACACUUUUGGAACAGGUGGUCCCAGGUCGUUUC: 1.63
AAGUCCUGUGCUACACAUCGUAUGUACCGAAUCGGGGAAAAGGGAAAAGGGAAAAGGAAAGUAUUAUGUUACGCCGUUCGGAUCUGCACU: -0.574
AGUCCUGUGCUACACAUCGUAUGUACCGAAUCGGGUUUUUGGGUUUUUGGUUUUUGGAAAGUAUUAUGUUACGCCGUUCGGAUCUGCACU: -1.16
CCUGUGCUACACAUCGUAUGUACCGAAUCGGGGCCCCCCCGGGCCCCCCCGGCCCCCCCGGAAAGUAUUAUGUUACGCCGUUCGGAUCUG: -0.238
CCUGUGCUACACAUCGUAUGUACCGAAUCGGGGAAAAAGGGGUUUUUUUGGGGUUUGGGGAAAGUAUUAUGUUACGCCGUUCGGAUCUGC: 0.412
CUCAAGUCCUGUGCUACACAUCGUAUGUACCGAAUCGGCCGGGGCCGGGCCGGAAAGUAUUAUGUUACGCCGUUCGGAUCUGCACUUCCA: -0.34
UCAAGUCCUGUGCUACACAUCGUAUGUACCGAAUCGGGGAAGGGAAGGGAAGGGGAAAGUAUUAUGUUACGCCGUUCGGAUCUGCACUUC: 1.01
GUCCUGUGCUACACAUCGUAUGUACCGAAUCGGGGAAAAAAAGGGGAGGGGAAAGGGGAAAGUAUUAUGUUACGCCGUUCGGAUCUGCAC: 0.436
CUCAAGUCCUGUGCUACACAUCGUAUGUACCGAAUCGGUUUUUUUGGUGGAGGAAAGUAUUAUGUUACGCCGUUCGGAUCUGCACUUCCA: -0.339
ACCAUGCAGGUGGGCAUCUUUGGGAAGUGGGGCAAGGGGGGGAUAGGGAGGGGGGUAACACUUUGGGAACAGGUGGUCCCAGGAAAUUUC: 1.17
UGGCCCUGGUGGCAUGCGGGGAGGAAGAGGUGGCCUCAUGGAUCGUGGUGGUCCCGGUGGAAUGUUCAGAGGUGGCCGUGGUGGAGACAC: 0.0839
ACCAUGCAGGUGGGCAUCUUUGGGAAGUGGGGCCAGGGGGGGAUAGGGAGGGGGGUAACACUUUGGGAACAGGUGGUCCCAGGUCGUUUC: 1.3
CUGUGCUACACAUCGUAUGUACCGAAUCGGGCCCCCCCGGCCCCCCCGGGCCCCCCCGGGGAAAGUAUUAUGUUACGCCGUUCGGAUCUG: -0.78

Set 3 — method: RNA Bind-n-Seq; form: RNA; medium: in vitro; tested at: 365 nM; baseline: no-protein control; reading: higher = stronger binding; endpoint: RBNS enrichment (R)
Target: RNA binding protein fox-1 homolog 2, RRM domain, GST-SBP tag (RBFOX2, Homo sapiens, UniProt O43251-10, residues 100-194)
Setting: natural RNA segment, single round, ends assumed
Constant ends, left off below: GGGAGUUCUACAGUCCGACGAUC … UGGAAUUCUCGGGUGCCAA
Target sequence (chain): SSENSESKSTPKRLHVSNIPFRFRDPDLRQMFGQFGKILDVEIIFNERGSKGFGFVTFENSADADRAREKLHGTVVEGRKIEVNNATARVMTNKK
UAGUUAUAAAAAAGACACUUCGAAUUAUUUGAGUUAUAAAUAGCUUUUGUGACAGGAGCAUACCCAGAAUAAAACACGCCUACCUGUUAACUCGUUCAAAUAAUGUGGUC: 0.443
CAACAGUUUGAGGGAGCAUUGCCCCUUUGUUCCUGUGAGGACUGGCAGGCUUUGACUGACCUCUCAUUCCCUUUGCACUGCUUCAGGUUAGUUCUAGUCCAUAAUGGCCU: 0.231
CUAGAUUUUAGAACUGUAUGUAGAAUUUUCACAGAAUACAUUGUUAAGCUAACACUUUUAACAACGGUUACAAUGUUAAGUGAAGUUCAUGGAUUUAACAACAAAACAGA: 0.265
UUUGCCUUAACUCCACUGCUGUGGUUGUUCCUUGGACCUGACCGAUGCUCAUACAAUAAUCUCAAGAGCCCUGUCUGUUUCGUAAUAGUAACUACUUCUCAUGAACACUA: 0.34
AAAUAAUCUAUUCGAAGUCCAAACCAAACACAAAGCCUGUGAUAUUUUAGGUUAUUAAGGUAACUGCUAAUGAAGGAUUUUAAAAAGUGUCCUCAAAAAGGACUUAGCCC: 0.561
GCUUUCCUGGGGAGAGAUUAAGCGCUCAUUAAGCAGAGGAGCCCACUUUGAGGAGAGCAAAGCACAAGCUUGCCUGAAGAAUGGAUCCCAACUUCUCCCCGGCAGCUCUG: 0.725
GGAAAGCAAGGUUGCCUGGUAGCUCCAGCCCACAGUCCUCCCCUUCUGAAAGACCCACAGCGAUCUGCCUCCUCAGCAUCCAGCGUGCUGGCUCCAGAGCUGCUGUUCCC: 0.405
UGUCAUCGUCAGCGUGUCAUCUGGAUGUACGAAGGUAGUAAAAAAGGGUUUCAGAACAGAGCCACGGGACUGGUAGGAAGAGGAGAUCCACAAAUGCUGUAUACAGGCUG: 0.621
CCCAGGUCCAGGCCCUGUGUAAGGGCUUGCAGCCUGUCUCUGCUGUCCACCCUGCAGUGCUCACUUUAAACACAGGUCUCUAGGAGACCCUGGGAAACACACCAAUCACC: 0.205
UGAAGAGCAAUUCUCACUGGUAACUUGACAUCUCUCAAUUUCAGGAUCUUUGCCUCUCAUUAAAAGUCAUGGAAAAUAUACACAUUUAAGGUGAAUAGACACAUUAAGGU: 0.23
CCUGCAGGUCUGCCCGCCUGCCAAUCGGAGCACAGCUGGACUGUGUGGCUGGGGCCUGACACUGAGCUGUAGGGAAACUGAACUGUGAGGACCUCUGGUGAGAGGCCAGU: 0.762
GACUCUGGCACCAUGCCAGCUGACUGCUACCCAGGUCAGAUUGGACUCAUGGUCAAUACCCAGCCAGUCUUCUUACAGGGACUUGAGAGGCUCAGGCUACUAUGACCAAU: 0.46

Set 4 — method: universal PBM; form: double-stranded DNA, one strand shown; medium: in vitro; tested at: 600 nM; reading: higher = stronger binding; endpoint: E-score
Target: Sal-like protein 4, full length isoform A (SALL4, Homo sapiens, UniProt Q9UJQ4, residues 1-1053)
Sequence of UniProt Q9UJQ4 (whole entry, looked up): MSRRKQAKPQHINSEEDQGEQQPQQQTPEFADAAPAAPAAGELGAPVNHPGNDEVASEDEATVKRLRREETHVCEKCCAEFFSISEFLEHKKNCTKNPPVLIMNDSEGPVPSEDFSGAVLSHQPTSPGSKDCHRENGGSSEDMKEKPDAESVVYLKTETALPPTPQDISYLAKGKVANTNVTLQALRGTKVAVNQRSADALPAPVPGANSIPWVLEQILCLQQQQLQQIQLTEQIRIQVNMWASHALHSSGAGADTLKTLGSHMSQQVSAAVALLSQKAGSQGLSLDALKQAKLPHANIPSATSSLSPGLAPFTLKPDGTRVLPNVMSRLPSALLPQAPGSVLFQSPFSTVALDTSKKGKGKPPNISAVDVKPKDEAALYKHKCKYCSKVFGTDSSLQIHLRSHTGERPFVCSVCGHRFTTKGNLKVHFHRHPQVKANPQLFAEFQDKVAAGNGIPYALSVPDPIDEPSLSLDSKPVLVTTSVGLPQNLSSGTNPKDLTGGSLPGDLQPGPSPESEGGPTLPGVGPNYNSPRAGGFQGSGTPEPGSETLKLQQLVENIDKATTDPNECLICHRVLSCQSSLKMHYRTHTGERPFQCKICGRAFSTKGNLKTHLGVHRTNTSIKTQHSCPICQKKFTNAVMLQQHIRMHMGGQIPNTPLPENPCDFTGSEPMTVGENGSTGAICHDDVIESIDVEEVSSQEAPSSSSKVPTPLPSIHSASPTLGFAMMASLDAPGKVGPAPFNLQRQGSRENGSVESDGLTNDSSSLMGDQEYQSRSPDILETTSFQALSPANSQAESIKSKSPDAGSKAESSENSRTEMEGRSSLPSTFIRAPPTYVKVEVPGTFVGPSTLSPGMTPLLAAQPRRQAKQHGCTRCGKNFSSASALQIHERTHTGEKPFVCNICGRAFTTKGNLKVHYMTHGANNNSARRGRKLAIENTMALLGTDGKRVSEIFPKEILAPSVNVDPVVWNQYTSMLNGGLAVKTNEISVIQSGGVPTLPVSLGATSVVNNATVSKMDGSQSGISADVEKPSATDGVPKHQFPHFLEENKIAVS
Setting: 8-mer, flanks averaged, mean of replicates
GGCGACAC: -0.307
TCAATCAA: 0.262
AACCCCTA: -0.26
AAGTCACC: -0.196
AAGACGTC: -0.0679
AACGGGGA: -0.152
CACAGGGG: -0.288
ACGCCGCC: -0.37
AAACGTAC: 0.0538
ACACTCAT: 0.262
CGATGGTC: -0.156
TATGGACA: 0.194
CGCGAACA: -0.0852
TATCAAGA: 0.209
CAAGCTCA: -0.167
CTACCTGC: -0.167
CATCAAGG: -0.0357
ACACCGTC: -0.153
CTCTCAGC: -0.22
GGACCTAA: -0.0518
AGACGTAC: 0.00375
ACTAACAG: 0.162
CACATGGC: -0.107
GTGACAAC: -0.0252
GTTTCCGA: -0.212

Set 5 — method: protein-binding microarray; form: double-stranded DNA, one strand shown; medium: in vitro; tested at: 250 nM; setting: 60-bp whole probe; with: salmon DNA 0.4 mg/ml; baseline: random background probes; reading: higher = stronger binding; endpoint: log fluorescence; constant ends, left off below: GCCTAGCAC … GTCTTGATTCGCTTGACGCTGCTG
Target: Interferon regulatory factor 5, full length, phosphomimetic (IRF5, Homo sapiens, UniProt Q13568-2, residues 1-514, K96S/S451D/S453D/S456D/S462D)
TTAGAATTCAGTTTCGATTAGTGCTAG: 9.55 z-score
TTAGAGTTCAGTCTCGATTAGTGCTAG: 0.864 z-score
GACTGTTTCCTTATCCTGACGTGCTAG: 0.857 z-score
GACGGTTTCGGTTTCGGGCCGTGCTAG: 10.4 z-score
TTAGATCTAAGTCTCGATTAGTGCTAG: 0.72 z-score
TTAGGTTTCGCCACTGGGTTAGTGCTA: 3.98 z-score
TCAGTCCTCACTTCCTTCTGGTGCTAG: 0.139 z-score
TTAGGTATCGGTCTCGCTTAGTGCTAG: 6.71 z-score
GACGGACTGGGTCTCGGGAAGTGCTAG: -1.08 z-score
TCACCTTTCCTTTGCCTACTGTGCTAG: 0.648 z-score
GGGTCTTCAGGTTCTCCCCCAGTGCTA: -0.573 z-score
AGATGCCAAGAGGCATGATGGTGCTAG: -0.565 z-score
GACGATCTCAGTCTCGAGGCGTGCTAG: -0.195 z-score
TTTGGTCTCCTTATCCTTTAGTGCTAG: -0.00425 z-score
GACGGACTGCTAATGCTGACGTGCTAG: -0.707 z-score
GACGGTTTCGGTTTGGGGACGTGCTAG: 9.53 z-score
TTAGGCCTGGGGTTTCGGTTAGTGCTA: 5.8 z-score
TTAGGACTGGGGACTGAGTTAGTGCTA: -0.396 z-score
TTAGATTTCGGTACTGGATTAGTGCTA: 7.81 z-score
TTAGGTATCGACACTGGGATAGTGCTA: 2.42 z-score
GACGGACTGGACTATGGGGACGTGCTA: -0.534 z-score
TCAGGTTTCCTTTCCCTTTAGTGCTAG: 1.99 z-score

Repeated from above (set 4):
TATCAAGA: 0.209
ACTAACAG: 0.162
CACATGGC: -0.107
AAGTCACC: -0.196
GTGACAAC: -0.0252
ACACTCAT: 0.262
CATCAAGG: -0.0357
CGCGAACA: -0.0852
